Published values of several laboratories.
Every numbered part comes from another study and shows a few of its results, in no order.

Set 1 — method: RNA Bind-n-Seq; molecule type: RNA; matrix: in vitro; concentration: 365 nM; relative to: no-protein control; reading: higher = stronger binding; quantity: RBNS enrichment (R)
Target: RNA binding protein fox-1 homolog 2, RRM domain, GST-SBP tag (RBFOX2, Homo sapiens, UniProt O43251-10, residues 100-194)
Notes: natural RNA segment, single round, ends assumed
Shared flanks, not repeated: GGGAGUUCUACAGUCCGACGAUC … UGGAAUUCUCGGGUGCCAA
Residues (chain): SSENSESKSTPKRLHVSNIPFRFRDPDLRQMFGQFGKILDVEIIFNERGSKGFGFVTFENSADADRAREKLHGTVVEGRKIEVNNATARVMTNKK
CGGAAGUCGCUCUCCUGGGAGGCAAUGAGCAUUGCCGUAUAGGUUCCUGUUUAUUAGAGAGUAUGCUAAUAAAAGUCCUUGUAAUAGCUCACAGCCACCUAAGUGCGCGG: 0.428
AGAGUGAGGAGUCUUCUGAGCUCCCUGGCUAAGUGCAGCGUGCUAGCAGACAGGCAGGGGAUGCAAACGGCUGCCGGGCCACCUCUCCCCUCUCACAAACCAUAUAAACA: 0.506
AUAUUUGAGAAACAUGAUUAGGUGAAUAAAGUAUUCUAGCAAAAGCUCUAAUCUGUAGAUCAAAAUGUAGAAGUUUGUGCAUUAUUAAGAGGAAAGUCUUGUGCCAAGAA: 0.948
CUAUUACAAUCACUGUGUGUGUGUCUUUUCUUAGCAAAGGCGUUUUAAAACUUGAGCCUGGACCUUGGGGUCCUGUAGUGUGUGGAUUCCAAGGCCUUGCCCUCAGAGCA: 3.64
AUAUAUAGAGAGAAUUGGUCUCGUUUAAACACGCCGAACCUCACCAUAUGGAGCCAGACAUUGGGACGCACGCAUGUGAUUGUGUGUGCACGCAUGUGUGUGUGUGCACG: 1.92
AGUUUACUGCAAGACAGCUGCGCUGUCAAGACUGAGCUGGCUUCAGGCUGUGUCCGAGCUGUGUCACAUGCAGCUCUACCCACGCUUUUAAACUCAGGAAUGCACACCUA: 0.269
ACAAAAAAAUAUCCUGGGCAAUAAAAAAAAUAUUUUAAACCAGCUUUGGAGCCACUUUUUUGUCUAAGCCUCCUAAUAGCGUCUUUUAAUUUAUAGGAGGCAAACUGUAU: 0.651
AGAAGUGCAAGCUGAUUACUCACCCCACCCUGCCUCGCCGCACCUUUCCUUUGUUUCCUUGGGUGAAUGCAGGAGCAGCAGUGGCUGCCCUUCCCACCUGGACAGUGGUG: 0.955
ACUUGAAUUUGACAAACUGAAGCAGACAAGUGUUCUGGGUCCUCUGAUAAUUUGGGGUGUUUGGCUGUCAGCUAGGCUCAUGAAGUCCACUGUACUGUAAUGAUGGUAUU: 0.369
AGAAGUCACAUGGGUUCUCAGGGUAUGCCAGGGGCAGAAACAGUACCGGCUCUCUGUCACUCACCUUGAGAGUAGAGCAGACCCUGUUCUGCUCUGGGCUGUGAAGGGGU: 0.341
CUUCAGUGUGGCAAAGGAGUAGUGUAGUUCCCUCCACAGGCCCUGUCGUAAUAAAAGCCUCAGUGCAGCUUCUUCCUGCAGUUCACAUCUUGAUGCUAGGAUGCUCCUGG: 0.348
AGUUGCUUUUUGGGGUAAUUUGAAUUACUUUUUUAAUGACUGGGGUUCCAUUUGACUGUUUGCAUUGAGAUUGCAAUGUGCGCAAUUUUUUUUGUAGUUGUGGCAUCUUG: 0.878

Set 2 — method: protein binding microarray; molecule type: double-stranded DNA, one strand shown; matrix: in vitro; concentration: not given; relative to: not given; reading: higher = stronger binding; quantity: E-score
Target: Histone acetyltransferase KAT6A, both winged helices, GST fusion (KAT6A, Homo sapiens, UniProt Q92794, residues 1-181)
Notes: 8-mer, flanks averaged, mean of 2 arrays, mostly near background
Construct (chain): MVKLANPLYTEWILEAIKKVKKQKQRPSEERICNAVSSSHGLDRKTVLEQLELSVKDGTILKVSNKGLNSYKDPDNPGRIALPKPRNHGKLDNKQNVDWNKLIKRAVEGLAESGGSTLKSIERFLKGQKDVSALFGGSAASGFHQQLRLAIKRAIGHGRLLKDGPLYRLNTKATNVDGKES
AAATTAGG: -0.0397
CACTGCGG: 0.0981
GCGTGAAA: 0.12
GCTCCGAA: 0.102
GTTAACGA: -0.011
AGTGGGTC: -0.0287
AGTCCGAG: 0.0588
AAATTATG: -0.00921
GATCAAAC: 0.0665
CCACAGCC: -0.12
TAAGGATA: -0.0283
ATGGTGCA: -0.12
AAATGCGT: 0.133
ACCACGCG: 0.269
CACTCGTA: -0.076
ACCGTAGT: 0.187
CGATCAAC: 0.053
ACACATAA: -0.125
CCTTCTCC: -0.269
ATGGCCCA: -0.196
GACACGAC: -0.0246
ATACAGGA: 0.0549
ACCTTTCT: -0.0294
AATGAGCC: -0.0696
CCTCGTGA: -0.112

Set 3 — method: RNA Bind-n-Seq; molecule type: RNA; matrix: in vitro; concentration: 1 µM; notes: whole 134-nt RNA, ends assumed; with: 150 mM KCl; relative to: input library; reading: higher = stronger binding; quantity: log2 enrichment
Target: Ras GTPase-activating protein-binding protein 1, RRM domain (G3BP1, Homo sapiens, UniProt Q13283)
Sequence of UniProt Q13283 (whole entry, looked up): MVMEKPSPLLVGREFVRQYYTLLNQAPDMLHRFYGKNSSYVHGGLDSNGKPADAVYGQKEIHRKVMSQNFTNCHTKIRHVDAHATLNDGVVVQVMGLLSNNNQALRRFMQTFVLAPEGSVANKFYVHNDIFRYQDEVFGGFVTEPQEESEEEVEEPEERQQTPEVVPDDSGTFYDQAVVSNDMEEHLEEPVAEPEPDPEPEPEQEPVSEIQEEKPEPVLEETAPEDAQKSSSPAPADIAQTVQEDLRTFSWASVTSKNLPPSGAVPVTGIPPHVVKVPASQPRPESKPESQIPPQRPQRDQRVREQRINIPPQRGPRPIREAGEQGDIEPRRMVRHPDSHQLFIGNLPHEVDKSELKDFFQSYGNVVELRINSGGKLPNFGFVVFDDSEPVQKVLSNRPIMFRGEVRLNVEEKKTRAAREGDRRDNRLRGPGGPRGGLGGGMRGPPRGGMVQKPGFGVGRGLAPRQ
Shared flanks, not repeated: GGGAGUUCUACAGUCCGACGAUC … UGGAAUUCUCGGGUGUCAAGG
GUCCUGUGCUACACAUCGUAUGUACCGAAUCGGGAAAAAGGGAAAAAGGGUUUUUGGGAAAGUAUUAUGUUACGCCGUUCGGAUCUGCAC: 0.0945
UUUUAGAAAGAGAAGGGGAAGAAAAUGAAGCCUUACAUAAGAUGAUUGCAAACGAGCAAAAGACUUCUCUCCCAAAUUUGUUCCAGGAUA: -0.194
CACAGACAACACGCACCCACACAGACACAAAAGGAAGGGGUUGGGAUGGGGACAGGGUGCACAGCAGGGCGGGGUAGGACCCCAGCCCCU: -0.101
CUCAAGUCCUGUGCUACACAUCGUAUGUACCGAAUCGGGCCGGGGCCGGCCGGGAAAGUAUUAUGUUACGCCGUUCGGAUCUGCACUUCC: -0.405
UUAGAUGAGGACCUUGAGAUUGAAUUGGUUGAGGAAGAGCCUCCAUUCCUGAGAGGGCACACUAAGCAAAGCAUGGACAUGAGCCCCAUU: -0.0896
GAAGAUUGGCUUAAAAUGGCUACUGUGAUGGGAACAGUGUCUUAGGGAGAUGCAGCUUGGACUUGAGGUAAAUUGAAUACUUUACAACUG: -0.093
GCAGGAAGUAAAAACAAAUGGAAAUGCUUCGGAUAGUGGCAGGGGUAGGGGUUGCUAAGGAAAGGGUGGGAUGGGAGUGGGUAAAGAGUU: 0.839
UGGCCCUGGUGGCAUGCGGGGAGGAAGAGGUGGCCUCAUCGAUCGUGGUGGUCCCGGUGGAAUGUUCAGAGGUGGCCGUGGUGGAGACAG: 0.148
UGGCCUUAUCACUCCUGGAGGCUUUUCAUCAGUGCCUGCUGGAAUGGAGACCCCUGAACUCAUUGAGCUGAGGAAGAAGAAGAUUGAGGA: -0.394
UUCAUUCUUACUUUGAAUCUAGGAUUUUAUGGAAGACCUUGGGUUAUGGAACAGAGAAAAGAACUCUUUAGAAGGUAAAUCUUCAUUAUA: -0.229
UAGUGAUGGUCCUAAAUAGCAUGAGUGUCAGCUGGAGCGCCCGGAUCCAGAUUUUCUUAACCUUUUGCAAGCUCACAGCAAUUCUGAUAA: -0.129
CACAGACAACACGCACCCACACAGACACAGAGGGAAGGGGUUGGGAUGGGGACAGGGUGCACAGCAGAGCGGGGUAGGACCCCAGCCCCU: -0.21
UACAGACAACACGCACCCACACAGACACAGAGGGAAGGGGUUGGGAUGGGGACAGGGUGCACAGCAGGGCGGGGUAGGACCCCAGCCCCU: -0.0566
AGUCCUGUGCUACACAUCGUAUGUACCGAAUCGGGGUUUGGGGAAAAAGGGGAGGGGAAAGUAUUAUGUUACGCCGUUCGGAUCUGCACU: 1.29

Set 4 — method: aptamer microarray, sandwich; molecule type: DNA with 2'F-ANA; matrix: in vitro; concentration: 200 nM; with: Cy3 exosite-II aptamer, 400 nM; reading: higher = stronger binding; quantity: mean fluorescence intensity; oligonucleotide: GGTTGGTGTGGTTGG
Target: Prothrombin, mature alpha-thrombin (F2, Homo sapiens, UniProt P00734)
Notes: whole 15-mer aptamer, many near background
2'F-ANA at 1 5 6 8 11 12 15: 90.7 a.u.
2'F-ANA at 1 7 9 11 13 15: 118 a.u.
2'F-ANA at 1 3 5 9 10 11 12 14 15: 175 a.u.
2'F-ANA at 2 4 6 10 13: 71.1 a.u.
2'F-ANA at 1 3 6 9 11 13 14 15: 73.7 a.u.
2'F-ANA at 1 3 5 9 13 14 15: 49.1 a.u.
2'F-ANA at 2 3 4 7 8 9 10 11 12 13 14: 165 a.u.
2'F-ANA at 2 3 6 8 9 11 12 13 14: 362 a.u.
2'F-ANA at 5 8 11 12 13: 110 a.u.
2'F-ANA at 1 2 3 5 6 10 13 15: 46.5 a.u.
2'F-ANA at 2 3 6 7 9 10 12 14: 243 a.u.
2'F-ANA at 1 2 8 9 11 12 13 14: 63.9 a.u.
2'F-ANA at 2 4 5 6 9 12: 165 a.u.
2'F-ANA at 4 5 9 10 11 12 13 14: 44.1 a.u.
2'F-ANA at 7 8 9 10 11 13 14 15: 114 a.u.
2'F-ANA at 1 2 3 4 6 10: 104 a.u.
2'F-ANA at 1 4 12 13 15: 231 a.u.
2'F-ANA at 2 4 5 8 10 12 14: 128 a.u.
2'F-ANA at 2 6 8 9 12 14 15: 155 a.u.
2'F-ANA at 5 6 8 11 13: 58.7 a.u.
2'F-ANA at 2 4 5 7 8 9 10 11: 57.7 a.u.
2'F-ANA at 2 4 6 8 13 15: 185 a.u.
2'F-ANA at 3 4 6 7 8 10 11: 240 a.u.
2'F-ANA at 1 3 4 7 8 10 12 13: 77.2 a.u.
2'F-ANA at 2 4 5 7 14: 47.3 a.u.

Some of these lines once more (set 4):
2'F-ANA at 4 5 9 10 11 12 13 14: 44.1 a.u.
2'F-ANA at 7 8 9 10 11 13 14 15: 114 a.u.
2'F-ANA at 1 2 3 4 6 10: 104 a.u.
2'F-ANA at 1 4 12 13 15: 231 a.u.
2'F-ANA at 2 4 5 8 10 12 14: 128 a.u.
